Measurements gathered from unrelated publications.
A part holds a random share of what one study measured. Positions count from the first letter of the parent shown.

Set 1
Target: RING finger protein unkempt homolog, zinc fingers 1-6, GST-SBP tag (UNK, Homo sapiens, UniProt Q9C0B0, residues 30-357)
Method: RNA Bind-n-Seq
Molecule type: RNA
Matrix: in vitro
Concentration: not given
Setting: RNA with constant flanks, human and mouse sites, ends assumed
Reference: input RNA pool
Direction: higher = stronger binding
Constant ends, left off below: GGGAGUUCUACAGUCCGACGAUC … CAACAGAGGAUUGAGCAUCA
Target sequence (chain): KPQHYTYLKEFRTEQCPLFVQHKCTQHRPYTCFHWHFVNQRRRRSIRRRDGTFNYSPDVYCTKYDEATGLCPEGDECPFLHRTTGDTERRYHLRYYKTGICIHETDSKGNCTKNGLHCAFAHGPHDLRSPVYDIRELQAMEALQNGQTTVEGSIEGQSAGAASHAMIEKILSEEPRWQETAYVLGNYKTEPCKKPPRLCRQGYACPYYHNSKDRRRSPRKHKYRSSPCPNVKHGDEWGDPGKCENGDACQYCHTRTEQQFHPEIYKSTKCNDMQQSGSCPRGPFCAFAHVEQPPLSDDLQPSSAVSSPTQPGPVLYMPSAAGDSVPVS
Oligonucleotide	bound/input enrichment
CCUCUUCCUACAAAUUUCAGUUUUAAAGGACAAAACCAGCUGAAGUUUGUUGCUGCUUCCUAUGAUAUACGAGGAAACUUCAUCAAAUGGCAACCUUUAGAAGGUGGUGUUUUACAGCUU	0.279 ratio
CAGAGUUGGACAGACUUCUCAAGGCUCCAUCUUUCCAAUAAAUUGGCCAUUUUUGGAAUUGGCUAUAACACCCGCUGGAAAGAGGAUAUUCGUUACCAUUAUGCUGAGAUCAGCUCACAG	0.143 ratio
UUACACAUUUGGUGAGCAGGGCAGCAUUUCCUUCUCCCACUGCUGCUGAGAUGGCAGAAAUUAGUCGAAUUCAGUACGAAAUGGAAUAUACUGAAGGCAUUAGUCAGCGAAUGAGGGUCC	6.36 ratio
CUGAGGCUGUGGGGUGAUCAUGGACAAGAAGCUUUGGAAUCUGCUCAUGUUUGCUUAAUAAAUGCAACGGCUACAGGAACUGAAAUUCUUAAAAACUUGGUGCUGCCAGGUAUUGGAUCA	0.189 ratio
GGAUACCUUCAGUCGAAGUUUUUUUAGCCCUCACUGAGCUACUUCCAAGUUUGGAAGUACUUAGUGACCUUGGUGAGUUUCUGUCCCCAAUCCCUUAACCCCUCAUCAAUGCUGCUAGUU	0.387 ratio
AUGUCAUAUGGAUUAAACAUUGAAAUGCACAAACAGACUGAAAUCGCCAAGAGAUUGAAUACGAUUUGUGCACAAGUCAUCCCAUUUCUGUCUCAGGAACAUCAACAACAGGUGGCCCAG	0.0629 ratio
CAGAAGAUCGAUGACCUCUUCUCCGGGAAGCUGUACCUCAUCGGCAUUGCUGCCAUCGUGGUCGCUGUGAUCAUGAUCUUCGAGAUGAUCCUGAGCAUGGUGCUGUGCUGUGGCAUCCGG	0.055 ratio
CUCUGAGUUUGAAGGGACAGCUAUUUUUAUUGAUUAUCUUUAAGUCUCUCUACCAUGGAGAAGAGCAGGAAGGGAUACACUCUCCAGUGCAUUUUCAUGUUUUGAAUCUGAUUAGUGGAU	0.27 ratio

Set 2
Target: Histone acetyltransferase KAT6A, winged helix 2, GST fusion (KAT6A, Homo sapiens, UniProt Q92794, residues 85-181)
Method: protein binding microarray
Molecule type: double-stranded DNA, one strand shown
Matrix: in vitro
Concentration: not given
Setting: 8-mer, flanks averaged, mean of 2 arrays, mostly near background
Reference: not given
Direction: higher = stronger binding
Residues (chain): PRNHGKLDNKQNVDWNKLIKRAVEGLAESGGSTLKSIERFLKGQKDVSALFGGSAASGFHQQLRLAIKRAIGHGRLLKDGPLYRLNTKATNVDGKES
Oligonucleotide	E-score
ACTTTGTG	0.131
CTTCAGAA	0.0421
GAATGAAC	0.0644
GAGTTAAC	-0.0246
GTATAGAA	-0.117
CGATGTAG	-0.0213
AGCTGCTC	-0.0754
CATGTTAA	-0.134
ACTTTTCG	-0.0781
ATCGCAGC	0.152

Set 3
Target: CCND2, cyclin fold, Cln2 fusion (human)
Method: yeast growth competition, sequencing
Matrix: yeast
Setting: weak parent motif
Reference: not given
Direction: higher = stronger binding
Parent: SLBP docking peptide (human); ARYKRKLLINDFG
Variant	normalised enrichment score
ARYKRKLLINDFP [G13P]	0.615
ARYKRKLTINDFG [L8T]	0.154
ARYKRLLLINDFG [K6L]	0.476
ARDKRKLLINDFG [Y3D]	0.172
ARYKRKLLINDFS [G13S]	-0.187
ARYKRKLQINDFG [L8Q]	0.201

Single results of other studies
Molecule	target	assay	test system	conditions	scale	quantity	value
PhoQ, residues 284 288 289 292 302 303 GNNTDL	PhoP, residues 12 14 15 18 19 GQALL (Escherichia coli, UniProt P23836)	Sort-seq, measured: YFP reporter	E. coli	PhoQ-PhoP variant library, together with: 10 µM Mg2+	reference: high Mg2+ state, higher = stronger signaling	fold induction	3.44
